Experimental data pooled from the literature.
Each numbered part is a random draw from the data of one study; scales do not carry over between parts. Substitutions count along the parent as printed.

Study 1
Target: RNA binding protein fox-1 homolog 2, RRM domain, GST-SBP tag (RBFOX2, Homo sapiens, UniProt O43251-10, residues 100-194)
Method: RNA Bind-n-Seq
Form: RNA
Medium: in vitro
Tested at: 365 nM
Setting: natural RNA segment, single round, ends assumed
Reference: no-protein control
Direction: higher = stronger binding
Quantity: RBNS enrichment (R)
Shared flanks, not repeated: GGGAGUUCUACAGUCCGACGAUC … UGGAAUUCUCGGGUGCCAA
Construct (chain): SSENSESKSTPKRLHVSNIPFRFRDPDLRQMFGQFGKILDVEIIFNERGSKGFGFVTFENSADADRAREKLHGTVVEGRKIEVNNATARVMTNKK
AUGUUAGUGAAUUCUGUUUCUUUUCAUUCUCGGAAAUGGCAGGAAGCAGCUCCAGUCUCUGAUUUCCAUGGGUCACGUGCUGGGGAUGUGAUGAAGCCUGCAGUCUGCAC: 0.739
CAAAAGCAUAAAAAACCACAGCAAAUUUCUUGAUGAGAACUGAAAAUAAAAGUUUCCUUGUAUUUUAGUGAUCUGGUUCUGUGUGGGUGAGUGUGGGUUCCAGGUACCCC: 0.385
GGUUGGUGAUCCAUUGGGUGGAUCAGGACGGAACUCUGUGUCCCCAGGUCUCAGGAGUGCCAUCCCCGGGCUCAGCUCCAGUUCCCUGGGCUCAUGCUACUAGUGCUCUG: 0.581
CUUUUAUUUAACAUAUAUAUUUAUUUUAACUCUCUUGGAAGAUGUGUGAGGGAAAAAAAUAACUCUCAUUUGAUCAGACACUAAAUAUUUGGGGUAGGGAUUUCUGUCUU: 0.717
AUGUGCUGGGCCAAGGAGCUGCCGUGCUCUGCUAGCUUUGACCCGUGGGCAUGGAGAUUUACCCGCACUGUGAACUCUCUAAAGGUUAAACAAAGUGAGGUGAACCAAAC: 0.658
UUUAUUAGAUAUGAGUUGUUUUCAGACUCAGACUCCAUUUGUAUUAUAGUCUAAUAUACAGGGUAGCAGGUACCACUGAUUUGGAGAUAUUUAUGGGGGGAGAACUUACA: 0.44
UUUAAUAUUUGAUGCUCAUAUGUGUCUUUAGUGUGAGCUCUUGUGUUUUGAAAUGAUUGCUUCAGUCUUUGCCUUUGUUUGCAUUUGUGUUUAGUGAAAACUAGAGAAAC: 1.05
UCCAUUUUCUAGGCUUAAAAGAUAUAUUUUUGAUAUAUUUAAUUAUAUUCUCUACACUCCAGCAUUAAUAUGUCUGUUUAAAAAUUACUAAUUCUCAAAUGGCUCAAGAA: 1.19
ACUCAGGUAAUCUCCAUUUCUGGUUUUAUAUUUUCUGUACAAACUGCCUGGGUUUUAUUUUUCUAAUCAGCAAGGUGCUUCACUGCCUUCUUGAGACGCCUCUCAAAGCU: 0.386
UGUGGUCCGGCUUUGGGAGAGUGGUGAAUUGCGCUGCCCGAACUCGGAGCGGAGCAGGGUAGGGACCGUGUACAGCUUGAUAACCCUUAAUAAAAAGGGAGUUUGACCAG: 1.14
UUACUGUAAACACAGUGUUCGACUGAAGCUAGAGUGCAGAGUCGCAGCACUGCUGACUGCCUGCCUCUCUGACAUGUGGCUCUUGUUUCGUGGGGACUUUUCCUCUGGAA: 0.355
UUGGCUCAUGCAUAUAACUAUCUGCUGCUGAUGUAGUUCUCCAUCUUCAAGAUUUAGAGUGGGUUAACCAGGUCAUUACAUCUUAAUUUAAUAACAAGCAUUACUGUAGA: 0.609

Study 2
Target: Interferon regulatory factor 7, full length, phosphomimetic (IRF7, Homo sapiens, UniProt Q92985, residues 1-503, S101K/S471D/S472D/S475D/S476D/S477D/S483D/S484D/S487D)
Sequence of UniProt Q92985 (whole entry, unmodified, looked up): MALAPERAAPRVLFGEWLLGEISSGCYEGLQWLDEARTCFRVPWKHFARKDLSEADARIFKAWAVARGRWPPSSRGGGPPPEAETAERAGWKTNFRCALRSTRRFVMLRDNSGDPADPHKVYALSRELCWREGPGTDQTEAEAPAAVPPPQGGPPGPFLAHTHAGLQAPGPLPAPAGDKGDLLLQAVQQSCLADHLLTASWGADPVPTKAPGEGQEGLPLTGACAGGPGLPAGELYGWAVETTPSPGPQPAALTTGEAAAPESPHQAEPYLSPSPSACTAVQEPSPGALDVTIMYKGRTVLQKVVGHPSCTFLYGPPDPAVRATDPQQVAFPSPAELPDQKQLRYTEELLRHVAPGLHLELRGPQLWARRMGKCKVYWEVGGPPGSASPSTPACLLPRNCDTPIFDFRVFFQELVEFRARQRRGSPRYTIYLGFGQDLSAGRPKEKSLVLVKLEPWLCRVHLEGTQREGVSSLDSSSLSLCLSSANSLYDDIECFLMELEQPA
Method: protein-binding microarray
Form: double-stranded DNA, one strand shown
Medium: in vitro
Tested at: 250 nM
Setting: 60-bp whole probe
With: salmon DNA 0.4 mg/ml
Reference: random background probes
Direction: higher = stronger binding
Quantity: log fluorescence
Shared flanks, not repeated: GCCTAGCAC … GTCTTGATTCGCTTGACGCTGCTG
GACAATTTCGGGACTGGAGACGTGCTA: 0.303 z-score
GACGGTTTAGGGTTTCGGGACGTGCTA: 2.16 z-score
TCAAAGTTCTTTTTTTCACTGTGCTAG: 0.558 z-score
TCAACTTTCTACTTCTCACTGTGCTAG: 1.16 z-score
GCTTCCTCACCTGATGCCTCGTGCTAG: 2.43 z-score
GACGAACTGGGATTTCGAGACGTGCTA: -0.287 z-score
GACGGTTTCGGCCTCGGGACGTGCTAG: 2.73 z-score
TCATTTTTCTTTTATTAACTGTGCTAG: 2.51 z-score
GTAGATTTCGGGTATCGATTAGTGCTA: 1.28 z-score
CTCTCTTTCCAACTCTGTTTGTGCTAG: 2.24 z-score
TTTGGTTTCGACACTGGGTTAGTGCTA: 4.7 z-score
GACGGACTGGGGTATCGGGAGGTGCTA: -0.58 z-score
GAAGCTTCTTTTTTATTCTAGTGCTAG: 0.279 z-score
TTAGGTATCCTTCTCCTTTCGTGCTAG: 0.697 z-score
GACGATTTTAGACTGGAGACGTGCTAG: -0.382 z-score
TTAGGACTGGACACTGGCTTAGTGCTA: -0.702 z-score

Study 3
Target: CCNB1, cyclin fold, Cln2 fusion (human)
Method: yeast growth competition, sequencing
Medium: yeast
Setting: weak parent motif
Reference: not given
Direction: higher = stronger binding
Quantity: normalised enrichment score
Starting sequence: CDKN1B docking peptide (human); PSACRNLFGPVDH
PVACRNLFGPVDH [S2V]: 0.557
PTACRNLFGPVDH [S2T]: 0.527
PSACRNLKGPVDH [F8K]: 0.491
PSACRNLFGPVVH [D12V]: 0.524
PSACANAFGPVDH [R5A L7A]: -0.0847
PSACRNLFLPVDH [G9L]: 0.515
PSACRNLFGPVKH [D12K]: 0.513
PSACDNLFGPVDH [R5D]: 0.0776
PSACRNLFFPVDH [G9F]: -0.0138
PSACRNLHGPVDH [F8H]: 0.332
PSACRNLFGPEDH [V11E]: 0.379
PSACRRLFGPVDH [N6R]: 0.279
PSACSNLFGPVDH [R5S]: -0.00164
PSACRNLFGPVDE [H13E]: 0.481
PSACRNLFGEVDH [P10E]: 0.487
PSACRLLFGPVDH [N6L]: 0.758

Study 4
Target: Ras GTPase-activating protein-binding protein 1, full length (G3BP1, Homo sapiens, UniProt Q13283)
Sequence of UniProt Q13283 (whole entry, looked up): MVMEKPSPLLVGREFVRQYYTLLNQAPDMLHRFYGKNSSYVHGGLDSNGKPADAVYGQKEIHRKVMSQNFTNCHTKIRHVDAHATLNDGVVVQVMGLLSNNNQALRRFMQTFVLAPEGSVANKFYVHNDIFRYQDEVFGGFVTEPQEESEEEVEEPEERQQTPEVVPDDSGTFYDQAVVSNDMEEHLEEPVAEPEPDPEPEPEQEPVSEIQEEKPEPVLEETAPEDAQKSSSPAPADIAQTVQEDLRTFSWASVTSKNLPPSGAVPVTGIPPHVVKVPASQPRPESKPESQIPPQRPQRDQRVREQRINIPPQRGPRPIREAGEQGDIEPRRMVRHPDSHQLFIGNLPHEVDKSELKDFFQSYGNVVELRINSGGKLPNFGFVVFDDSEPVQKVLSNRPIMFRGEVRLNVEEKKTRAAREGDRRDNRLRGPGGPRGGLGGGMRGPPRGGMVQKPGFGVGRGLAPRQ
Method: RNA Bind-n-Seq
Form: RNA
Medium: in vitro
Tested at: 200 nM
Setting: whole 134-nt RNA, ends assumed
With: 150 mM KCl
Reference: input library
Direction: higher = stronger binding
Quantity: log2 enrichment
Shared flanks, not repeated: GGGAGUUCUACAGUCCGACGAUC … UGGAAUUCUCGGGUGUCAAGG
CCUGUGCUACACAUCGUAUGUACCGAAUCGGGGUUUUUUUGGGGAGGGGAAAAAAAGGGGAAAGUAUUAUGUUACGCCGUUCGGAUCUGC: 0.0436
GUCCUGUGCUACACAUCGUAUGUACCGAAUCGGGUUUUUGGGUUUGGGUUUUUUUGGGAAAGUAUUAUGUUACGCCGUUCGGAUCUGCAC: -0.504
AAGUCCUGUGCUACACAUCGUAUGUACCGAAUCGGGGAAAAGGAAAAGGGGAAAAGGAAAGUAUUAUGUUACGCCGUUCGGAUCUGCACU: -0.544
GUCCUGUGCUACACAUCGUAUGUACCGAAUCGGGGAAAAAGGGGAGGGGAAAAAGGGGAAAGUAUUAUGUUACGCCGUUCGGAUCUGCAC: 0.421
CAAGUCCUGUGCUACACAUCGUAUGUACCGAAUCGGAAAGGUUUGGAAAAAAAGGAAAGUAUUAUGUUACGCCGUUCGGAUCUGCACUUC: -1.02
CACAGACAACACGCACCCACACAGACACAGAGGGAAGGGGUUGGGAUGGUGACAGGGUGCACAGCAGGGCGGGGUAGGACCCCAGCCCCU: 1.37
UGGGAGGUGGAUUUUGUUUAUUUUUUUAGCUCAUUUCCAGGGGUGGGAAUUUUUUUUUAAUAUGUGUCAUGAAUAAAGUUGUUUUUUAAA: 0.194
UUGUUUUUUUUUUGUUCUUUUUUUCCAUGUCACUAAAGGCCCUCGGGACCAAGGAUCACGUCAUGACUCCGGUGAGUUCACACGUGGUGG: -0.245
CUCAAGUCCUGUGCUACACAUCGUAUGUACCGAAUCGGUUGGGGUUGGUUGGGGAAAGUAUUAUGUUACGCCGUUCGGAUCUGCACUUCC: 0.786
UCCUGUGCUACACAUCGUAUGUACCGAAUCGGUUUUUUUGGAAAAAAAGGAAAAAAAGGAAAGUAUUAUGUUACGCCGUUCGGAUCUGCA: -0.776
CACAGACAACACGCACCCACACAGACACAGAGGGAAGGGGUUGGGAUGGGGACAGGGUGCACCGCAGGGCGGGGUAGGACCCCAGCCCCU: 1.87
UCAAGUCCUGUGCUACACAUCGUAUGUACCGAAUCGGGGUUGGGUUGGGUUGGGAAAGUAUUAUGUUACGCCGUUCGGAUCUGCACUUCC: 1.05
AAGUCCUGUGCUACACAUCGUAUGUACCGAAUCAAACCCAAACCCCCAAAUUUAAAAAAGUAUUAUGUUACGCCGUUCGGAUCUGCACUU: -0.468
UCCUGUGCUACACAUCGUAUGUACCGAAUCGGUUUUUUUGGUUUUUUUGGUUUUUUUGGAAAGUAUUAUGUUACGCCGUUCGGAUCUGCA: -0.527

Study 5
Target: Histone acetyltransferase KAT6A, winged helix 1, GST fusion (KAT6A, Homo sapiens, UniProt Q92794, residues 1-85)
Method: protein binding microarray
Form: double-stranded DNA, one strand shown
Medium: in vitro
Tested at: not given
Setting: 8-mer, flanks averaged, mean of 2 arrays, mostly near background
Reference: not given
Direction: higher = stronger binding
Quantity: E-score
Target sequence (chain): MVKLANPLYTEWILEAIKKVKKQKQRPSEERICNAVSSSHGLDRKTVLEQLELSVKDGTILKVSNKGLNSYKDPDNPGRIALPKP
GTACTATA: -0.0596
CATCTTAA: -0.28
GTTTGTTA: -0.0278
CGTGGTAC: 0.0251
CACTAGTA: 0.017
CCGCTATC: 0.248
AAACGCAT: 0.0953
ACAATAAG: -0.148
GGCGCGCC: 0.436
ATCTGTTG: -0.312
GGATGGCC: 0.014
ATGAGGAC: -0.0507
GTGCCGAA: 0.172
GGAGTGCA: -0.078
GTCGCTAA: 0.161
CAAGCAGC: -0.122

Study 6
Target: PABPC1L2, full length, GST fusion (mouse, UniProt A0ABA7IW68)
Method: RNAcompete
Form: RNA
Medium: in vitro
Tested at: 20 nM
Setting: 7-mer, probes averaged, single round
Reference: mean of 7-mers
Direction: higher = stronger binding
Quantity: 7-mer Z-score
Target sequence (chain): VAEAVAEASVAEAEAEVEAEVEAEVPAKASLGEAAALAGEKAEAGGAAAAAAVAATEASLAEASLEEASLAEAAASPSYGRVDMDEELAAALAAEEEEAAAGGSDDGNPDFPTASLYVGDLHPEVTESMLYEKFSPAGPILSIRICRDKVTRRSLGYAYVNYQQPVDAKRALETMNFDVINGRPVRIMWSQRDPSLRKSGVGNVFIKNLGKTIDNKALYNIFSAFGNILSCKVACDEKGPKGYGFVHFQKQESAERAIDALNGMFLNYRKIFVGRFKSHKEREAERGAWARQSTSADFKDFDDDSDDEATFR
AAAGUCG: 0.952
AAAGUAG: 1.88
UAUAUUC: -0.193
AGUAGCA: -0.0228
AUCCAUA: -0.108
GGACGAG: 0.0478
CUAUAGC: -0.237
CGGUGUA: -0.0935
GGGUCGU: -0.188
CCAACGG: -0.0681
UGUAGUC: -0.322
UAUAUGG: -0.0609
CGCUGGG: -0.0754
GGCUAUA: 0.225
UGCCGGA: 0.0388
GAGAGCA: 0.149
GCGUCUU: -0.373
UGACCGG: -0.139
GCCGUAC: -0.304
UUUGACC: -0.271
CAAUAUU: -0.106
ACCACCC: -0.224
CUCCUAG: -0.371
GAGUCAG: -0.217
GGCCACC: -0.222

Some of these lines once more (study 1):
UUUAUUAGAUAUGAGUUGUUUUCAGACUCAGACUCCAUUUGUAUUAUAGUCUAAUAUACAGGGUAGCAGGUACCACUGAUUUGGAGAUAUUUAUGGGGGGAGAACUUACA: 0.44
UUUAAUAUUUGAUGCUCAUAUGUGUCUUUAGUGUGAGCUCUUGUGUUUUGAAAUGAUUGCUUCAGUCUUUGCCUUUGUUUGCAUUUGUGUUUAGUGAAAACUAGAGAAAC: 1.05
UCCAUUUUCUAGGCUUAAAAGAUAUAUUUUUGAUAUAUUUAAUUAUAUUCUCUACACUCCAGCAUUAAUAUGUCUGUUUAAAAAUUACUAAUUCUCAAAUGGCUCAAGAA: 1.19
ACUCAGGUAAUCUCCAUUUCUGGUUUUAUAUUUUCUGUACAAACUGCCUGGGUUUUAUUUUUCUAAUCAGCAAGGUGCUUCACUGCCUUCUUGAGACGCCUCUCAAAGCU: 0.386
UGUGGUCCGGCUUUGGGAGAGUGGUGAAUUGCGCUGCCCGAACUCGGAGCGGAGCAGGGUAGGGACCGUGUACAGCUUGAUAACCCUUAAUAAAAAGGGAGUUUGACCAG: 1.14
UUACUGUAAACACAGUGUUCGACUGAAGCUAGAGUGCAGAGUCGCAGCACUGCUGACUGCCUGCCUCUCUGACAUGUGGCUCUUGUUUCGUGGGGACUUUUCCUCUGGAA: 0.355
UUGGCUCAUGCAUAUAACUAUCUGCUGCUGAUGUAGUUCUCCAUCUUCAAGAUUUAGAGUGGGUUAACCAGGUCAUUACAUCUUAAUUUAAUAACAAGCAUUACUGUAGA: 0.609
